Published values collected from several papers.
Every numbered part comes from another study and shows a few of its results, in no order.

Series 1 — technique: protein-binding microarray; molecule type: double-stranded DNA, one strand shown; medium: in vitro; tested at: 250 nM; notes: 60-bp whole probe; added: salmon DNA 0.4 mg/ml; reference: random background probes; reading: higher = stronger binding; measurement: log fluorescence; shared flanks, not repeated: GCCTAGCAC … GTCTTGATTCGCTTGACGCTGCTG
Target: Interferon regulatory factor 7, full length, phosphomimetic (IRF7, Homo sapiens, UniProt Q92985, residues 1-503, S101K/S471D/S472D/S475D/S476D/S477D/S483D/S484D/S487D)
Residues (chain): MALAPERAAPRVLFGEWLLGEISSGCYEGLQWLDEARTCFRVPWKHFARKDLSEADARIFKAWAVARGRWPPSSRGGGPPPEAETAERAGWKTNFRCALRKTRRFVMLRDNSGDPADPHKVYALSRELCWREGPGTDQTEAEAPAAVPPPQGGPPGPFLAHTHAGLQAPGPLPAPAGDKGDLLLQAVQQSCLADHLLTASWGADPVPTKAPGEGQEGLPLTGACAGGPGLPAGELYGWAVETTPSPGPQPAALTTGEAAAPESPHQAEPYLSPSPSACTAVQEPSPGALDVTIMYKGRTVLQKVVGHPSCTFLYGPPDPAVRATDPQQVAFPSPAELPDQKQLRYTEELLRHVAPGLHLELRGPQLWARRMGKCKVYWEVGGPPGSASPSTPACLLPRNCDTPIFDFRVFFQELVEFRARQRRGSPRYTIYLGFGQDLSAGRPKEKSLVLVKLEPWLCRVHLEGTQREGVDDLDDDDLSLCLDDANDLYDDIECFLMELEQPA
TTAGGTCTCGGTCTCGGATAGTGCTAG: 1.67 z-score
CTTCTTTTTTTTCTTTAAAAGTGCTAG: 1.99 z-score
ATAGATATGCCAAATCTGTGTGTGCTA: -0.242 z-score
TTAAGTCTCGGACTGGGTTAGTGCTAG: 0.441 z-score
TTAGAACTGGGGACTGGACTAGTGCTA: -0.636 z-score
TCACTTTGGCCTCTAGGACTGTGCTAG: 0.344 z-score
TACGGACTGGACACTGGGGACGTGCTA: -0.709 z-score
GACCGACTGGGTTTCGGGACGTGCTAG: 2.27 z-score
GACGATTTCGGGTTTCGTGACGTGCTA: 2.64 z-score
GACGGTCTCCGTATCCTGACGTGCTAG: -0.0608 z-score
CTTTGTTTTTTTCTATATGCGTGCTAG: 1.73 z-score
TTAGGTTTCCTAATCCTTTAGTGCTAG: 2.25 z-score
GACGGTATCGACTTTCGGGCCGTGCTA: 0.546 z-score
TTAGGTTTCGACTTTCTGTTAGTGCTA: 10.2 z-score
GAGGGACTGGGGACTGGGGACGTGCTA: -0.572 z-score
GACGATTACGGGACTGGAGACGTGCTA: -0.449 z-score
GACGGTATCGGACTGGGGCCGTGCTAG: -0.201 z-score
AACCGCACAGAACTAAAACAGTGCTAG: 0.0788 z-score
GACGATTTGGGGTTTCGAGACGTGCTA: 2.18 z-score

Series 2 — technique: RNA Bind-n-Seq; molecule type: RNA; medium: in vitro; tested at: not given; reference: input RNA pool; reading: higher = stronger binding; measurement: bound/input enrichment
Target: RING finger protein unkempt homolog, zinc fingers 1-6, GST-SBP tag (UNK, Homo sapiens, UniProt Q9C0B0, residues 30-357)
Notes: RNA with constant flanks, human-mouse chimeric sites, ends assumed
Shared flanks, not repeated: GGGAGUUCUACAGUCCGACGAUC … CAACAGAGGAUUGAGCAUCA
Residues (chain): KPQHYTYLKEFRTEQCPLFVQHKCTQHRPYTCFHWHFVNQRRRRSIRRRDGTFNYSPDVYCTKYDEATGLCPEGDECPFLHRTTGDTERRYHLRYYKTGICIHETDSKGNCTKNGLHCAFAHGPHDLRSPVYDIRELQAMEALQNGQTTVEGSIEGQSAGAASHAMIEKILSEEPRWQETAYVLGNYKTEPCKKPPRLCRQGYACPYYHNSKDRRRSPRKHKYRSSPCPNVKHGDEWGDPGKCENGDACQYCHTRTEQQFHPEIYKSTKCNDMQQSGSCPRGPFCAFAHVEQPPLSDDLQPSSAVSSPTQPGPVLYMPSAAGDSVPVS
CUGUGUGUGCUGAAUAAUGAUUUGUGAAAGAAGUUUUUCCAAGCUGUAACCCAUGCUGUUAUUAUAGUUGCUGCAAAAUGUUCUUCCUGAUAUUGAUUUUAUUUGUUCUGACUCUCCCUC: 0.516 ratio
UACUGCUGCUUUCAACUUAAAUCACUGAGGCAUCUCUACUGUUCUGUUAAAAUCAGGACUGUAGCGCUGUGUCACCACAUGAGAGUUCAGAAGCAGCCUUUCUGUGGAGGGUGGGAAUGA: 0.111 ratio
AGCGUUCAGGAAUUCAUGACCUUCACGAGUCAACUGAUUGUGGAACGCUCGGGGAAAGGCAGCAGAGCUUCUGUCAAAGAACAAGAGUAUCUUUGCCAUGUCUACGUCCGGAGCGACAGU: 0.0753 ratio
UGUAACUCUUAUCUGUAAGGUUCCCCCCCCUACUGUCCAAAAAAUAUGCAUGUAUAGUAAUUAGGACUUCAUUCCUCCAUGUUUUCUUCCCUUAUCUUACUGUCAUUGUCCUUAAACCUU: 1.12 ratio
CUGUUUUGACAGCCACAAAUUCUUGGCAUGUAUUAAGAAAAAAAAAAAUCCCUGUUGAAGUAGUUUUUCCACCUAUCAGCACUGAGUAAAUGCCAUAACUCCGCGGAAAUGGUCUAAAUA: 0.277 ratio
GUGUCCUGCUUUCAACUUAAAUCACUGAGGCAUCUCUACUGUUCUGUUAAAAUCAGGACUGUAGCGCUGUGUCACCACAUGAGAGUUCAGAAGCAGCCUUUCUGUGGAGGGUGGGAAUGA: 0.112 ratio
CGGAGCCCUCCUCUCCCCCAGGCCCGAGAUAUAACCCACCAGUGCCUUUUGUCUUCCUGUCAGCUCUGUCAAUCACGGCCCUGCCUUCACGCCCACACCAAGUGCCCAAAGUGGGGAGGG: 0.696 ratio
CAUGUAUCUGCAGUACUUGAUGUGGACUACUCUCCCACUGGGAAGGAAUUUGUGUCUGCCAGCUUUGAUAAGUCUAUUAGAAUCUUUCCUGUGGACAAGAGCCGAAGCAGGGAAGUGUAU: 0.637 ratio

Series 3 — technique: protein binding microarray; molecule type: double-stranded DNA, one strand shown; medium: in vitro; tested at: not given; reference: not given; reading: higher = stronger binding; measurement: E-score
Target: Histone acetyltransferase KAT6A, winged helix 1, GST fusion (KAT6A, Homo sapiens, UniProt Q92794, residues 1-85)
Notes: 8-mer, flanks averaged, mean of 2 arrays, mostly near background
Target sequence (chain): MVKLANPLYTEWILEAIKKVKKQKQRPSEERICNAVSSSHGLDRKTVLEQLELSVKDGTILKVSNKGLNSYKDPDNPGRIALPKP
CGCTTCTA: 0.00556
CGTCCAAG: 0.113
AAATTTGT: -0.248
AACAAATT: -0.0261
CGAGTCCA: -0.00853
AAAATTCC: -0.0284
AGAGGAAT: -0.256
AAACCTTC: -0.199
CCGAAGCC: 0.193
CCGACGAC: 0.134
CGTGCAGC: 0.149
CAATCGGC: 0.162
GAACCGTC: 0.0629
AGGAGGCC: -0.117
CGCACAAC: 0.164
GAACAAGA: -0.0783
AGAGAAAA: -0.0182
ATAGAACC: -0.00558
GTCATAGA: -0.0323

Series 4 — technique: RNAcompete; molecule type: RNA; medium: in vitro; tested at: 20 nM; notes: 7-mer, probes averaged, single round; reference: mean of 7-mers; reading: higher = stronger binding; measurement: 7-mer Z-score
Target: PABPC1L2, full length, GST fusion (mouse, UniProt A0ABA7IW68)
Construct (chain): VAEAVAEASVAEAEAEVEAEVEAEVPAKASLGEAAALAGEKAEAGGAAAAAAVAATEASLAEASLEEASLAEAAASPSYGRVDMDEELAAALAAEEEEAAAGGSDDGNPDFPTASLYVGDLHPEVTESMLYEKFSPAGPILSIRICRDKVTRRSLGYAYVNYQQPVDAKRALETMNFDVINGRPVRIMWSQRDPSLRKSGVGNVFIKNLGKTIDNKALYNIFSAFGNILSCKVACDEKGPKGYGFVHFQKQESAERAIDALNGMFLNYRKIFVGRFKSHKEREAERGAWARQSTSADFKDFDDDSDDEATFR
ACGAAAU: 0.372
AAUAAAC: 2.83
UUUGACU: -0.275
UCGGCCA: -0.0881
UCGGGCU: -0.121
AGUUAAG: -0.173
UGUAUGA: -0.213
AUUAGGC: -0.0246
CUUGAUU: -0.103
AGUACGG: 0.0587
UAUGUCC: -0.304
GAUGCUG: -0.209
AAGAUUA: 0.416
GAUCGAU: -0.104
GCGCAUG: -0.209
ACCCAUC: -0.267
AUACGUA: -0.0917
UCGUGAU: -0.4
UCUUAGA: -0.202
CGGAGCA: 0.102
GAACUAC: -0.146
CUCGCGC: -0.407
CGGGGAU: 0.131
UCUUUAC: -0.186
AGGUUGU: -0.3

A few entries again (series 2):
CUGUGUGUGCUGAAUAAUGAUUUGUGAAAGAAGUUUUUCCAAGCUGUAACCCAUGCUGUUAUUAUAGUUGCUGCAAAAUGUUCUUCCUGAUAUUGAUUUUAUUUGUUCUGACUCUCCCUC: 0.516 ratio
UACUGCUGCUUUCAACUUAAAUCACUGAGGCAUCUCUACUGUUCUGUUAAAAUCAGGACUGUAGCGCUGUGUCACCACAUGAGAGUUCAGAAGCAGCCUUUCUGUGGAGGGUGGGAAUGA: 0.111 ratio
AGCGUUCAGGAAUUCAUGACCUUCACGAGUCAACUGAUUGUGGAACGCUCGGGGAAAGGCAGCAGAGCUUCUGUCAAAGAACAAGAGUAUCUUUGCCAUGUCUACGUCCGGAGCGACAGU: 0.0753 ratio
UGUAACUCUUAUCUGUAAGGUUCCCCCCCCUACUGUCCAAAAAAUAUGCAUGUAUAGUAAUUAGGACUUCAUUCCUCCAUGUUUUCUUCCCUUAUCUUACUGUCAUUGUCCUUAAACCUU: 1.12 ratio
CUGUUUUGACAGCCACAAAUUCUUGGCAUGUAUUAAGAAAAAAAAAAAUCCCUGUUGAAGUAGUUUUUCCACCUAUCAGCACUGAGUAAAUGCCAUAACUCCGCGGAAAUGGUCUAAAUA: 0.277 ratio
GUGUCCUGCUUUCAACUUAAAUCACUGAGGCAUCUCUACUGUUCUGUUAAAAUCAGGACUGUAGCGCUGUGUCACCACAUGAGAGUUCAGAAGCAGCCUUUCUGUGGAGGGUGGGAAUGA: 0.112 ratio
CGGAGCCCUCCUCUCCCCCAGGCCCGAGAUAUAACCCACCAGUGCCUUUUGUCUUCCUGUCAGCUCUGUCAAUCACGGCCCUGCCUUCACGCCCACACCAAGUGCCCAAAGUGGGGAGGG: 0.696 ratio
CAUGUAUCUGCAGUACUUGAUGUGGACUACUCUCCCACUGGGAAGGAAUUUGUGUCUGCCAGCUUUGAUAAGUCUAUUAGAAUCUUUCCUGUGGACAAGAGCCGAAGCAGGGAAGUGUAU: 0.637 ratio
